Measured values from different studies.
Each numbered part is a random draw from the data of one study; scales do not carry over between parts. Positions count from the first letter of the parent shown.

Series 1 — method: RNA Bind-n-Seq; form: RNA; sample: in vitro; concentration: 365 nM; reference: no-protein control; reading: higher = stronger binding
Target: RNA binding protein fox-1 homolog 2, RRM domain, GST-SBP tag (RBFOX2, Homo sapiens, UniProt O43251-10, residues 100-194)
Setting: natural RNA segment, single round, ends assumed
Target sequence (chain): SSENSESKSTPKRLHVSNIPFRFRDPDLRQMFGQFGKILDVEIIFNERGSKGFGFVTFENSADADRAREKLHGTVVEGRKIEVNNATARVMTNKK
| Oligonucleotide | RBNS enrichment (R) |
| --- | --- |
| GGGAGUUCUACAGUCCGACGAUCCUCCCUCUGCAGCGCUCGUCUGCCCGCUCGCCUGGGCUGCUCCUGCACUCGUGCUGGGCAUCCUGCCGAAGUGGCCACACUGCCACACUGCUCUGGCUCACGAGUAUUGGUGGAAUUCUCGGGUGCCAA | 0.383 |
| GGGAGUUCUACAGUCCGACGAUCCCAGUGUCAUUCAGUAUUUUGUUGAGAAGACAUUUUUAUCCUAAUGAUUUGAAAACUAAGUUCAUGUUAUAGAGUGGUUUACUGUACUAUACUUUCUCUUUUUUAUAUGAUGGAAUUCUCGGGUGCCAA | 0.709 |
| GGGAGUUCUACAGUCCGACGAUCUAGUCAGAAUAGCAGUUCUAGAGCACAGGUUCUCAGUCUAAGCUAUGGAAAAGCUCCCCUUAUCCAACAGAGUUUAAAAGUAGUGACUUGGGUUUUUGCGAGUGCUUUGUUGGAAUUCUCGGGUGCCAA | 0.432 |
| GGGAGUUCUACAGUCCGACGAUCGGGAAGACACAGAGACUCGUACCUGCGCUGUUUGUGCCGCCGCUGCCUCUGGGCCCUCCCAGCACACGCAUGGUCUCUUCACCGCUGCCCUCGAGUUCCAUGUCUCUUUCUGGAAUUCUCGGGUGCCAA | 0.641 |
| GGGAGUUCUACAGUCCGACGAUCGCUUUCUCACCCAAGUUGGCCACUUACGCUAAUCCUGGAAGUAUGAUCACUUUUGAACCUGCCCCUUAACCUUGACGAGGAUACAAAAGUGAAAGCAUCAUCCCCCAAAGUGGAAUUCUCGGGUGCCAA | 0.601 |
| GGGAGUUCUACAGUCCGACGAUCGAACUCUAGUGCACUUAUCAUUUUGUAGACCAUGUGGAAUUUAAUAAGAUACUUUUCCCCACUCCUUUCUUUGUGUGUAGUGCAGCAACAGUUUGGUCUGCAUUUGUUAGUGGAAUUCUCGGGUGCCAA | 0.845 |
| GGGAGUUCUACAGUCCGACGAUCGUGUGGGCAUAGCAUUAGCUGCUUCCUCCCCUCCUGGCACCCACUGUGGCCUGGCAUCGCAUCGUGGUGUGUCAAUGCCACAAAAUCGUGUGUCCGUGGAACCAGUCCUAUGGAAUUCUCGGGUGCCAA | 0.42 |
| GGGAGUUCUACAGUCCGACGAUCGAUGGACACCAAGAGGUCUUCCCCCCACCCCCAGCUCCCCACCAAUCCCUAUGCUUUCUGAUGCACUGCCCCUCCCCCAUCACUGAAACAUUUAUACAAGGGCUUGUGUGUGGAAUUCUCGGGUGCCAA | 0.967 |
| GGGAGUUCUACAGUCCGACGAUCAAGAAUUUGUCCUGUGGGUUUGGAAUCUUGGAUUUUCCCCCUUUAUGAACUGUACUGGCUGUUGACCACCAGACACCUGACCGCAAAUAUCUUUUCUUGUAUUCCCAUAUUGGAAUUCUCGGGUGCCAA | 0.53 |
| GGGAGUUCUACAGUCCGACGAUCUGUUCCUCCCCUGGCCAGUUAGGGAUGGGAUGUUCUGUGUCUUGUGUGUCCCUCUCCCUAGUCUAAAAAGCAAUUGAAAAGGUCUAUGCAAUAAAGGUUGUUGCUUCCCUUGGAAUUCUCGGGUGCCAA | 1.33 |
| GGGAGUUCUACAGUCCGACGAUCAGAGAUGUUUUAUAGUUACAUGAGCAAAAGCUGUUGCCCCAAAGUGAUGGCCCUGGAGGCGGGGCUGAGGAACAGGGAAAUGCCGCUGUGAAGUCUUAAAGCACUUCUGCUGGAAUUCUCGGGUGCCAA | 0.49 |
| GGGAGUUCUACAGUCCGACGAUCUCUUUUUCAAGAGAUUCUGAGGCAGUCCCCACCCAAUCCAAAUAGGUAGCUGCUUGUGCAGGUCCUGUGCCCAUGGCUUGCUGUGGAGGAGUGUGGCUGAUGGCCUGGGAUGGAAUUCUCGGGUGCCAA | 0.187 |

Series 2 — method: protein-binding microarray; form: double-stranded DNA, one strand shown; sample: in vitro; concentration: 2540 nM top; setting: 60-bp whole probe; with: salmon DNA 0.4 mg/ml; reference: random background probes; reading: higher = stronger binding; shared flanks, not repeated: GCCTAGCAC … GTCTTGATTCGCTTGACGCTGCTG
Target: Interferon regulatory factor 3, full length, phosphomimetic (IRF3, Homo sapiens, UniProt Q14653, residues 1-427, S386D/S396D/S398D/S402D/T404D/S405D)
Sequence of UniProt Q14653 (whole entry, unmodified, looked up): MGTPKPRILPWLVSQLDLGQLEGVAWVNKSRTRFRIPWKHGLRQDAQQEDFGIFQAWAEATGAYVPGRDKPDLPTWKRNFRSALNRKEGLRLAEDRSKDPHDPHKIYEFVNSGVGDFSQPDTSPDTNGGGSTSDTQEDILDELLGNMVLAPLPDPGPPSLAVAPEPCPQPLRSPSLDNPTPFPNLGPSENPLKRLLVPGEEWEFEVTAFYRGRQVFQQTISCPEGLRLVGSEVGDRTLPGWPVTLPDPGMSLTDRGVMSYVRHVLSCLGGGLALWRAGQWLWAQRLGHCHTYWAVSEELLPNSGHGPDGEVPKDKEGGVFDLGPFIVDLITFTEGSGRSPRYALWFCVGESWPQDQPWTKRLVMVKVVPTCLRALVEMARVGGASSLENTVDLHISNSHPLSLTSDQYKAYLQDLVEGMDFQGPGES
| Oligonucleotide | fitted relative affinity |
| --- | --- |
| TTAGCACTGGGGACTGGATTAGTGCTA | -1.05 z-score |
| TTAGATCTTAGTTTCGATTAGTGCTAG | 3.84 z-score |
| CCATTTCTGTTTTTGCTTTCGTGCTAG | 3.92 z-score |
| GACGGACTGCCTATCCTGACGTGCTAG | -0.31 z-score |
| GACGATATCGGGTAACGAGACGTGCTA | 0.071 z-score |
| GACGGTCACGGTCTCGGGACGTGCTAG | -0.131 z-score |
| GACGGACTGGGTCTCGCGACGTGCTAG | -0.841 z-score |
| CCTCCTCCCTGTTTCCATCTGTGCTAG | 2.74 z-score |
| TACGGTATCCTACTGCTGACGTGCTAG | 2.41 z-score |
| GACGGTATCGGTTTCTGGACGTGCTAG | 5.84 z-score |
| TTAGGTTTCGACTTTCGGTTTGTGCTA | 4.54 z-score |
| GACGTTCTCGGTTTCGGGACGTGCTAG | 3.79 z-score |
| TTAGGTATCGGGACTGGGTTTGTGCTA | 1.01 z-score |
| GACGGTATCGGGATTCGGGACGTGCTA | 1.81 z-score |
| GACGATATCGGGTTTCGACACGTGCTA | 1.03 z-score |
| TTATGTATCGACTATCGGTTAGTGCTA | 0.67 z-score |

Series 3 — method: competition protein-binding microarray; form: double-stranded DNA, one strand shown; sample: in vitro; concentration: 2 µM; with: Cbf1 competitor, 0.05 µM; reading: higher = stronger binding
Target: Phosphate system positive regulatory protein PHO4, full length, GST-tagged (PHO4, Saccharomyces cerevisiae, UniProt P07270, residues 1-312)
Setting: whole 60-bp probe, lowest competitor level
Construct (chain): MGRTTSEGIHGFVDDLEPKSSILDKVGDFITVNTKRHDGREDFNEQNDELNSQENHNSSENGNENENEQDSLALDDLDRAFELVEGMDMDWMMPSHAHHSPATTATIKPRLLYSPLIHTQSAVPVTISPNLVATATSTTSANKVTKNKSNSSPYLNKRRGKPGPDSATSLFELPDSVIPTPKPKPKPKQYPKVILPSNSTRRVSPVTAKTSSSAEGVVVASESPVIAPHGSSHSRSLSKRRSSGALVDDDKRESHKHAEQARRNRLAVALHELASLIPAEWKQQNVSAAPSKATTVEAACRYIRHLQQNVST
| Oligonucleotide | fluorescence intensity [a.u.] |
| --- | --- |
| CATACCCAACCTTTTCACGTGAAATAAGATATTTGTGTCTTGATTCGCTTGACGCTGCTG | 10500 |
| CGTCCTAGTGATTGTCACGAGACTTCCATGAGGAAGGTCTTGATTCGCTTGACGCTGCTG | 6560 |
| GCCTACCGGTCCTCGCACGCGGTCTCGCTTTTCTCAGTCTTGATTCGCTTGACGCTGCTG | 10300 |
| GACAGTCTTAGTGTAGACGTGACGGTTCTTGGTGGCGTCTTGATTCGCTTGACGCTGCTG | 4760 |
| GGGAACTAGGCAAAGCACGGGTTTGGCGAGGCCGCTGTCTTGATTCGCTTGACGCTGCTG | 8650 |
| GGACACTTTTCCCGTCACGTGGAACCGGCTTACAAGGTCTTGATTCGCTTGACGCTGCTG | 14000 |
| GCATTAACGACAAAGCACGTGACGAATTCCCTTCAAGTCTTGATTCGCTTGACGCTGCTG | 17100 |
| CGTCCTAGTGATTGTCGAGTGGGTGCCATGAGGAAGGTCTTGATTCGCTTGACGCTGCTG | 6010 |
| TCCAACAAATAAAGTTCCGTGATGGTTTAATGGTCAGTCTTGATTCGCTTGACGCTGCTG | 3380 |
| CTAACGAAGGTTTGTCGTGTGGGTGACAAGCCAAGTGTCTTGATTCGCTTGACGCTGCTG | 5370 |
| AAATTACTAAGTTGTCACGCTACTTACCCCGTATGAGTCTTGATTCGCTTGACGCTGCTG | 6150 |

Series 4 — target: CCND2, cyclin fold, Cln2 fusion (human); method: yeast growth competition, sequencing; sample: yeast; setting: weak parent motif; reference: not given; reading: higher = stronger binding
Parent: BRCA2 docking peptide (human); PSIKRNLLNEFDR
| Substitution | normalised enrichment score |
| --- | --- |
| LSIKRNLLNEFDR [P1L] | 0.28 |
| PSIKRNLLPEFDR [N9P] | 0.0602 |
| PSIKRNLVNEFDR [L8V] | 0.397 |
| PSIKRNLLNEFSR [D12S] | 0.32 |
| PSIKRNLLNEFNR [D12N] | 0.178 |
| PSDKRNLLNEFDR [I3D] | -0.408 |
| PSIKRNLLNELDR [F11L] | 0.0161 |
| PSIKRNLENEFDR [L8E] | 0.311 |
| PSIKRNLLNERDR [F11R] | -0.215 |
| PSIKRNSLNEFDR [L7S] | 0.046 |
| PSIKRNLLYEFDR [N9Y] | 0.0902 |
| PSIKRKLLNEFDR [N6K] | 0.377 |
| KSIKRNLLNEFDR [P1K] | 0.219 |
| PSIKRNLLNEFQR [D12Q] | 0.274 |
| RSIKRNLLNEFDR [P1R] | 0.358 |
| PPIKRNLLNEFDR [S2P] | -0.083 |

For quick reference, copied from above (series 2):
| Oligonucleotide | fitted relative affinity |
| --- | --- |
| GACGATATCGGGTAACGAGACGTGCTA | 0.071 z-score |
| GACGGTCACGGTCTCGGGACGTGCTAG | -0.131 z-score |
| GACGGACTGGGTCTCGCGACGTGCTAG | -0.841 z-score |
